Measured values of several laboratories.
Each numbered part is a random draw from the data of one study; scales do not carry over between parts. Changes are numbered by the printed parent chain.

Set 1
Target: PABPC1L2, full length, GST fusion (mouse, UniProt A0ABA7IW68)
Technique: RNAcompete
Molecule type: RNA
Medium: in vitro
Tested at: 20 nM
Notes: 7-mer, probes averaged, single round
Baseline: mean of 7-mers
Reading: higher = stronger binding
Construct (chain): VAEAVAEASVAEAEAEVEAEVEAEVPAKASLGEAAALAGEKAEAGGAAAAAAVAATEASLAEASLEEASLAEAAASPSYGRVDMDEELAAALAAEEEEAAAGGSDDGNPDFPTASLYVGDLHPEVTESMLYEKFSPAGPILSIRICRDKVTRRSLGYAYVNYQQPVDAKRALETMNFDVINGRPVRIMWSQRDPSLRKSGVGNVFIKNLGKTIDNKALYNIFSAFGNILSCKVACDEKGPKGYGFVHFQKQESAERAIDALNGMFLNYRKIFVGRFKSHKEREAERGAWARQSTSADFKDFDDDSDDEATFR
Strand | 7-mer Z-score
UGCUUUG | -0.338
GUUCCAG | -0.141
UUGGUAU | 0.0243
AUUCUUG | -0.376
UCGCAGA | -0.269
UUCAACA | -0.0428
GCGGUCU | -0.155
CACCGCA | -0.224
CGACCGC | -0.2
GAAACCA | 0.115
UAAUGCG | -0.126
GCCGCCA | -0.24
AGGCAAC | 0.24
CGAUGAU | -0.139
CUCAGGA | -0.0808

Set 2
Target: Hepatocyte nuclear factor 3-alpha (Foxa1, Mus musculus, UniProt P35582, residues 1-468, full length assumed)
Sequence of UniProt P35582 (whole entry, looked up): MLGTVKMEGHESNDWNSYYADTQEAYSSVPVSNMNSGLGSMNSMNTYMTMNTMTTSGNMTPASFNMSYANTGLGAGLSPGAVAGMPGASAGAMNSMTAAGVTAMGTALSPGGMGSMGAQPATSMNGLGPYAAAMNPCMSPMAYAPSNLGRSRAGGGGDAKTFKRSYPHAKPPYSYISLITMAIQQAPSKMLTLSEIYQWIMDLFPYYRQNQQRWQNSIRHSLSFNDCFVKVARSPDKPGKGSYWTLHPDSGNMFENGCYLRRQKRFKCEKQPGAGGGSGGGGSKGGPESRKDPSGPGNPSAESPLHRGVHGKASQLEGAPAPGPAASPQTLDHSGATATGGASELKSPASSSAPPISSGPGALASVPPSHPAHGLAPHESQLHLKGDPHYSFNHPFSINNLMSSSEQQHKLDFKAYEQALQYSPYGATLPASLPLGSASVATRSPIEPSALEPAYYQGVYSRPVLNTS
Technique: EMSA with sequencing
Molecule type: double-stranded DNA, one strand shown
Medium: in vitro
Tested at: 10 and 20 nM
Notes: whole designed probe, mean of two concentrations, ends assumed
Baseline: negative control set to 0
Reading: higher = stronger binding
Constant ends, left off below: GTGAGCGGTGCCCATTGATGGGGAAC … TTTCACTGGGATCGTGGGGAC
Strand | normalised bound fraction [ratio]
AGACTGGGAATCTGAGCAATGCTCATGGCAATAAGCCAGGACCAGGCCCTAAACATCTGGCTGCTCCACTGTATGGATCTTTGGCATGTTAAATGTCATCTGACCTTGTGGATATAAAGTTGACTCAGTCAGAAAACATCTACGGTCTACATGGAAAAGAAAGTCTTTTGGAAAGAAAAGAAGGCAGGGTGTC | -0.0394
GGCTGTTTAGGTAGCTGGCAGGAAGTAGTATGTGTCTCCAGAGCATAAAATTGGCCGCAAAGTAGGTAGGGCCTATGAAAATACTGATGTAATGTAAACATTGTATTTCTAAACTATTTACATGCTCATCCCTACCCTACATGAGAGGTCAGCTCTACCACTAAGAGGTCCCACATGGACTTCTACAATATTC | 0.485
AGTGTCTATAATATATTTATATATGTGTATATACCTACACACACACATGTAATTTTAAACAAACAATTTTAAACCAAAGCAGAGAAATTCCCTGTTTACTTTTGTGGTCTTTTGATTGGATTAGGAAATTGCATTTATAAAGGCCCCTTTGACCAGGAATAATTTTGTAATCTGGATGGGAAATTTCTTTCTT | 0.467
CAAGTTTGTGGTCCAGGAGCAACAGGTTATGCCATACAGCCTAGGTGTGTAGTAGGCTACACACCGTCTACCATGACTCATTACACTCTACAATGTTTGCACAATGATGAAATCCCATGTCACATTTCTCAGAACATACCCCTGTTGTTAAGCGATACATGACTGTACTTTTTTTAAAAAGTCCAAGGATATA | 0.438
AAGTGAAGATGATAAATATGATGGTTTGGGAATTTTTGCCTGGCTGCCATATGCACGAGGAACTAACCAGAGTCTGAAACAGAGAAACCAATGTAAACAAATAACAGAGTTTTTAATTTATATTGTCAATAAATATTAATCAGATATTTTATCAGTTCCTAAAAATGTTGTTTTAATATTTTTCCTACTTTGG | 0.507
CTCATTCCTTGCTTCCGCCAATAATCTGACTAGTAAAGAAGTCACTGCATGCCACAAATTGTCAGTGCTGACTTCCTCAACAAGGAAGTTATTTATTTACTTATTTAATATAGAGTGACTCAGTATGCAAATTCCATCTTGAGAATACCAACTCCTGATGCCAACTGATTGTCAGTCATGGCTACAACAGGAG | 0.444
ATTTGTAATTCTATTGGCAAATCCTTCTTTAGAAATTTTCCATGACAGACACGATGCTACCTTTGAAATTATGTGAACCATAGCAAATCAAAGTAATCTAATAATTCATCAACCAAAATATCAAAGTCCAACTGCCACCATTTAATTAGGCACATTTCATTAACTTTAGGAGCTCCTGGCTTAACTAAGCCAA | -0.00927
AAGCAGCCAGTGTCTCTGACACCATACAAATAAAATGCAGCACCATTTGGTGATCCAGCCTAAGATTATTCTTCTCCCTTTGGCAACAGACACAAATTACTTACTATCTTTCCCAGAGCAATAGAGGGAAGCCAGGAAAGTGCTGAGCTTGTATTCTACAACCTGAGAAGGAAGTAAGGGAAAGGAAGAGCTC | 0.0278

Set 3
Target: CCNE1, cyclin fold, Cln2 fusion (human)
Technique: yeast growth competition, sequencing
Medium: yeast
Notes: weak parent motif
Baseline: not given
Reading: higher = stronger binding
Parent: WEE2 docking peptide (human); KELRQKLNFSYCE
Variant | normalised enrichment score
KELRQKLNFSYCA [E13A] | 0.433
KELRAKLNFSYCE [Q5A] | -0.189
KELAQKLNFSYCE [R4A] | -0.0877
KELRQKLNFSYAE [C12A] | -0.24
KELRQKLNFSACE [Y11A] | -0.0459
KALRQKLNFSYCE [E2A] | 0.0278

Set 4
Target: UBE2V1 UBC core domain (UniProt Q13404)
Technique: yeast two-hybrid
Medium: yeast
Notes: mostly zero background
Baseline: not given
Reading: higher = stronger interaction
B1: DTX2 RING domain (UniProt Q86UW9); chain EELKVPPDEDCIICMEKLSTASGYSDVTDSKAIGSLAVGHLTKCSHAFHLLCLLAMYCNGNKDGSLQCPSCKTIYGEKTGTQ
B2: MDM4 RING domain (UniProt O15151); chain MEDCQNLLKPCSLCEKRPRDGNIIHGRTGHLVTCFHCARRLKKAGASCPICKKEIQLVIKVF
B3: RNF19A RING domain (UniProt Q9NV58); chain ISKQIGDFIECPLCLLRHSKDRFPDIMTCHHRSCVDCLRQYLRIEISESRVNISCPECTERFNPHDIR
B4: ZMIZ2 RING domain (UniProt Q8NF64); chain GTIPGTPGPNGEDGVEQTAIKVSLKCPITFRRIQLPARGHDCRHIQCFDLESYLQLNCERGTWRCPVCNKTALLEGLEVDQYMLGILIYIQNSDYEEITIDPTCSWK
B5: DZIP3 RING domain (UniProt Q86Y13); chain PDEEEEEEEPCVICHENLSPENLSVLPCAHKFHAQCIRPWLMQQGTCPTCRLHVLLPEEFP
B6: UBOX5 RING domain (UniProt O94941); chain EQPGSILGPECASCKRVFSPYFKKEPVYQLPCGHLLCRPCLGEKQRSLPMTCTACQRPVASQDVLR
B7: SH3RF1 RING domain (UniProt Q7Z6J0); chain DESALLDLLECPVCLERLDASAKVLPCQHTFCKRCLLGIVGSRNELRCPECRTLVGSGVEEL
Construct (chain): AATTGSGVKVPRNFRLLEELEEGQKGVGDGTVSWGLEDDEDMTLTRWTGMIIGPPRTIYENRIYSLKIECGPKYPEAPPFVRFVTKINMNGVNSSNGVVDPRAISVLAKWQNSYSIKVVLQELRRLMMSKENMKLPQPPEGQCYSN
Molecule | lacZ reporter activity
B1 (DTX2 RING domain) | 0
KETIKKTTKPCPRCHVPVEKNGGCMHMKCPQPQCRLEWCWNCGCEWNRVCMG (PRKN RING domain (UniProt O60260)) | 0
NLSELTPYILCSICKGYLIDATTITECLHTFCKSCIVRHFYYSNRCPKCNIVVHQTQPLY (PCGF6 RING domain (UniProt Q9BYE7)) | 0
B2 (MDM4 RING domain) | 0
B3 (RNF19A RING domain) | 0
B4 (ZMIZ2 RING domain) | 0
B5 (DZIP3 RING domain) | 0
B6 (UBOX5 RING domain) | 0
B7 (SH3RF1 RING domain) | 0
GSRLQEINDVCAICYHEFTTSARITPCNHYFHALCLRKWLYIQDTCPMCHQKVYIEDDIK (RNF139 RING domain (UniProt Q8WU17)) | 0
FDGDVDPDLKCALCHKVLEDPLTTPCGHVFCAGCVLPWVVQEGSCPARCRGRLSAKELN (PDZRN3 RING domain (UniProt Q9UPQ7)) | 0

Set 5
Target: ABI1, truncated, D143A, DHFR fusion (Arabidopsis thaliana, UniProt P49597)
Technique: DHFR PCA, dose-response
Medium: yeast
Notes: Hill fit, mean, not affinity
Added: (+)-ABA, dose series
Reading: lower = more sensitive
Parent: PYL1, truncated, DHFR fusion (Arabidopsis thaliana, UniProt Q8VZS8); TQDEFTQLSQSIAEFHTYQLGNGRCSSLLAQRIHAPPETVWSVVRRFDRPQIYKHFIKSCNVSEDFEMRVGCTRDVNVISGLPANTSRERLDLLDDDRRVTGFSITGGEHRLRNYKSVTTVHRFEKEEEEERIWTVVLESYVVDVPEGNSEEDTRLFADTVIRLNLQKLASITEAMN
Variant | ABA EC50 [µM]
D153C | 73.5
L93F | 5.18
Y18W | 3.69
G107P | 321
F157M | 20.1
E64Q | 2.46
I79S | 14
S42Y | 33.3
W41Y | 107
R45C | 129
G102V | 206
E125D | 1.67
I172H | 14.5
T120A | 474
N165S | 300
L156Y | 3.92
